# Measurements gathered from unrelated publications.
# Numbered parts are unrelated; each lists some results of a single study.

# Series 1 — technique: universal PBM; molecule type: double-stranded DNA, one strand shown; sample: in vitro; concentration: not given; direction: higher = stronger binding
# Target: Sal-like protein 4, full length isoform B (SALL4, Homo sapiens, UniProt Q9UJQ4-2, residues 1-616)
# Notes: 8-mer, flanks averaged, mean of replicates
Strand,E-score
AAGCGGCT,-0.287
GTTGATCA,0.0711
CCAGGTAA,-0.0255
GCCATCTA,0.00606
CATCGGCC,-0.315
ATCGTCCC,0.0483
AGTCTCGG,-0.268
AAGCCAAA,-0.108
CACGGACG,-0.0899
AAGCCTGA,-0.0256
CACTCAGA,0.0143
GTGCCGAA,-0.206
ACAGTCGA,-0.0966
CAATGACA,0.184

# Series 2 — technique: RNAcompete; molecule type: RNA; sample: in vitro; concentration: 20 nM; notes: 7-mer, probes averaged, single round; baseline: mean of 7-mers; direction: higher = stronger binding
# Target: PABPC1L2, full length, GST fusion (mouse, UniProt A0ABA7IW68)
# Residues (chain): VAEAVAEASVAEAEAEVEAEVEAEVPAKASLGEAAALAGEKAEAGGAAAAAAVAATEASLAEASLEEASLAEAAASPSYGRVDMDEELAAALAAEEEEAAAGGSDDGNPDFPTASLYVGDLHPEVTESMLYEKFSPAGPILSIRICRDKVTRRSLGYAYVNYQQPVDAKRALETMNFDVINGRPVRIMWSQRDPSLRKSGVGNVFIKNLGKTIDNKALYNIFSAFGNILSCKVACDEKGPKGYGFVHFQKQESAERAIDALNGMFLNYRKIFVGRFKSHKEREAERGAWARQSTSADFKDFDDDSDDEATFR
Strand,7-mer Z-score
CUGUACU,-0.418
CACUGUG,-0.191
UGGUGUC,-0.204
GGUCACU,-0.0355
AGCCUGA,-0.168
GUACAGA,-0.0047
AGCUUGA,-0.142
AUCCUUU,-0.219
CGGACCU,-0.0772
AGGUGGU,0.066
GAGUCCU,-0.344

# Series 3 — technique: protein binding microarray; molecule type: double-stranded DNA, one strand shown; sample: in vitro; concentration: not given; baseline: not given; direction: higher = stronger binding
# Target: Histone acetyltransferase KAT6A, both winged helices, GST fusion (KAT6A, Homo sapiens, UniProt Q92794, residues 1-181)
# Notes: 8-mer, flanks averaged, mean of 2 arrays, mostly near background
# Target sequence (chain): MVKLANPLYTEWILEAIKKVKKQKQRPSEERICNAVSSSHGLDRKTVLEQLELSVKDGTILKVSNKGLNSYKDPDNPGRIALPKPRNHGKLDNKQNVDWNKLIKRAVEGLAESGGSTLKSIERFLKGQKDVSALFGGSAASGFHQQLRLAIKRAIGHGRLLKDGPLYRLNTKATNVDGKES
Strand,E-score
ATACAATA,0.0213
AAGCGATT,0.0575
ATATCCAC,-0.0586
GACCTTGC,-0.103
CATAATGG,-0.0136
TCGGTACA,0.0958
AATAATTG,0.0119
GGAGAGAC,-0.0894

# Single results of other studies
Substance,target,assay,test system,conditions,how to read,quantity,value
"PhoQ, residues 284 288 289 292 302 303 MLMVEA","PhoP, residues 12 14 15 18 19 GQAIL (Escherichia coli, UniProt P23836)","Sort-seq, item: YFP reporter",E. coli,"PhoQ-PhoP variant library, together with: 10 µM Mg2+","baseline: high Mg2+ state, higher = stronger signaling",fold induction,13.7

# Repeated from above (series 1):
Strand,E-score
CATCGGCC,-0.315
ATCGTCCC,0.0483
AGTCTCGG,-0.268
AAGCCAAA,-0.108
CACGGACG,-0.0899
